Published values of several laboratories.
Parts stem from different laboratories: compare values within a part only.
UniProt Q9H4B4, sequence (whole entry, looked up): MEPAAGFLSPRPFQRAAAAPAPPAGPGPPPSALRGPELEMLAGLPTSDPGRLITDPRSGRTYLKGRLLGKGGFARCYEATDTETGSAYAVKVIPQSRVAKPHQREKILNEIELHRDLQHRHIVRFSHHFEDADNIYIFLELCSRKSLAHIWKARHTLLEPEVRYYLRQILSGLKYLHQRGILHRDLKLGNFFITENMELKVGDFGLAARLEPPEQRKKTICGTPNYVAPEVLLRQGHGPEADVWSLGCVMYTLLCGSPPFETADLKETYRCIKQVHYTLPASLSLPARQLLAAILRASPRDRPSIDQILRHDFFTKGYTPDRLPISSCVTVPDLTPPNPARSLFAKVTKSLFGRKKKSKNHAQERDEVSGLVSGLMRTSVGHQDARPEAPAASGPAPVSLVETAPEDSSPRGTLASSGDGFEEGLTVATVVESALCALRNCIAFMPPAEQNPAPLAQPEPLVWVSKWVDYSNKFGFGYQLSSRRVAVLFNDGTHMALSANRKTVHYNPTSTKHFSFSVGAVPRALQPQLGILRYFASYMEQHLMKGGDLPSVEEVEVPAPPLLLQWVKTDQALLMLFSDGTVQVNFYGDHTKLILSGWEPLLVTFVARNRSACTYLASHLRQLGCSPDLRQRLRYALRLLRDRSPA
UniProt P49840, sequence (whole entry, looked up): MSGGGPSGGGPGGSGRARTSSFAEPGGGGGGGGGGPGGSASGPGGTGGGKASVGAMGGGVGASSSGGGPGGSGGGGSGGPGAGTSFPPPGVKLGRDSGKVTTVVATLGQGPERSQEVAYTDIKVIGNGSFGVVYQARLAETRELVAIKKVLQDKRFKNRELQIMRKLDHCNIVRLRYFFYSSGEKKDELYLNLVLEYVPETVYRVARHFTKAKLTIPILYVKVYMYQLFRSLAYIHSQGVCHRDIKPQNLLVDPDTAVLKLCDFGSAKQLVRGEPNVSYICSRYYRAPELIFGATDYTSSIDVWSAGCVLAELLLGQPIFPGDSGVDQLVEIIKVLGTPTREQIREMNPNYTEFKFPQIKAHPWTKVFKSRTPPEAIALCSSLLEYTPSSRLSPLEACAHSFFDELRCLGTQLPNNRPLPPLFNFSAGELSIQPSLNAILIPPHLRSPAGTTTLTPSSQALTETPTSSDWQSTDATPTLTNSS
UniProt P28482, sequence (whole entry, looked up): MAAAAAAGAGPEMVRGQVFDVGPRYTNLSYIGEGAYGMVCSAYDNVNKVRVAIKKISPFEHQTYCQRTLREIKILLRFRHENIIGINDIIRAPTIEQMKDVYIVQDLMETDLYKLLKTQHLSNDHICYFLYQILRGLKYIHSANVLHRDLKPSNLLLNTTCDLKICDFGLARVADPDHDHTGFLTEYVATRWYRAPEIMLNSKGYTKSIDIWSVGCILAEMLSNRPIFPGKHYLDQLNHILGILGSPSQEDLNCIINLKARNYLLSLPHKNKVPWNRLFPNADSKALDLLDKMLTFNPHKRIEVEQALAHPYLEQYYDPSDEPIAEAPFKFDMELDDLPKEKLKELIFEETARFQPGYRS
UniProt Q16566, sequence (whole entry, looked up): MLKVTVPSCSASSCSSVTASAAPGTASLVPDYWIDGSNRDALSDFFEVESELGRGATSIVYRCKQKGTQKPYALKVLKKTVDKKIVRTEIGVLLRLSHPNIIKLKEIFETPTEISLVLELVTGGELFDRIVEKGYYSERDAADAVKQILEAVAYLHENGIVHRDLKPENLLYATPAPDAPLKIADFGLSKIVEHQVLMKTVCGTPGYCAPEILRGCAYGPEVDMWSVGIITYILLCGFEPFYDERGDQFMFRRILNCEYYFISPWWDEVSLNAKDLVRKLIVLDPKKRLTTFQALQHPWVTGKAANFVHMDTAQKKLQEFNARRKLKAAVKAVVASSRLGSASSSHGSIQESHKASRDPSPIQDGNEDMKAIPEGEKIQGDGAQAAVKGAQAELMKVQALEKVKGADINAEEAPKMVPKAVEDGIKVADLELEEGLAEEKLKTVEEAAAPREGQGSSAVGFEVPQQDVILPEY
UniProt P08581, sequence (whole entry, looked up): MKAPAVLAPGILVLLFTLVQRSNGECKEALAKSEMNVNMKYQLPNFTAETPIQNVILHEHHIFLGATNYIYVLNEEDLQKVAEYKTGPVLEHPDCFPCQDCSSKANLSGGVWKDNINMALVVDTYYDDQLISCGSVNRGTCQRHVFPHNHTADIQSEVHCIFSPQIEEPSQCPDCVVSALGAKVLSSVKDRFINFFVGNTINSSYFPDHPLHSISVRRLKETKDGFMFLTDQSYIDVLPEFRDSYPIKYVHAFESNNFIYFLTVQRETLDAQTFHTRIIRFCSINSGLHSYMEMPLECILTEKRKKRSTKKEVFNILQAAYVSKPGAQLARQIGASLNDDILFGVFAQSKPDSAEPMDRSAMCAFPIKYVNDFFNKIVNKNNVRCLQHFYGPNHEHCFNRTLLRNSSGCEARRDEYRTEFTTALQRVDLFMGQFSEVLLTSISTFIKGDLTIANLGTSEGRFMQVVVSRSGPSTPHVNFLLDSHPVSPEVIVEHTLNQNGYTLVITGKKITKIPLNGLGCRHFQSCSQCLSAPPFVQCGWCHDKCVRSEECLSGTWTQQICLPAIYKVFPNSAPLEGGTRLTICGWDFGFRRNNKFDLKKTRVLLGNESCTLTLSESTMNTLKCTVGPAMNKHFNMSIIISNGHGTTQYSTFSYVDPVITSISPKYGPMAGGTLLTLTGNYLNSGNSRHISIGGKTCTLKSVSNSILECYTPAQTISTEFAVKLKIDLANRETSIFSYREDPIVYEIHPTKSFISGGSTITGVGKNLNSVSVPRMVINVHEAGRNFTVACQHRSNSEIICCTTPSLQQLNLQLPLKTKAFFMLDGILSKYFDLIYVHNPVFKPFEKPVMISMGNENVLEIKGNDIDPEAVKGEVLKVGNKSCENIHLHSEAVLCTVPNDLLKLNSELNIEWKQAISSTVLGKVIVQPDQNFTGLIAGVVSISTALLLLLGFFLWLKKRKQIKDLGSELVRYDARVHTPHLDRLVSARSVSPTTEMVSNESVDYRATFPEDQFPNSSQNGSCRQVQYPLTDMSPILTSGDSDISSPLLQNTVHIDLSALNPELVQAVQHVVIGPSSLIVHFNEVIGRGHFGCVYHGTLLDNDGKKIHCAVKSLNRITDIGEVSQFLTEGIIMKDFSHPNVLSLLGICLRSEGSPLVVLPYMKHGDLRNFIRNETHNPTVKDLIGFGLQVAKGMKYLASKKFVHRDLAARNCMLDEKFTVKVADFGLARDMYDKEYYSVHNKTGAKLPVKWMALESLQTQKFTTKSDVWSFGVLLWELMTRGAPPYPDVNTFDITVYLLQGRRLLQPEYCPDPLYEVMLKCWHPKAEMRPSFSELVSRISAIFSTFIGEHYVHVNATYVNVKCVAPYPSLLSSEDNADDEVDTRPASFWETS
UniProt Q8N4C8, sequence (whole entry, looked up): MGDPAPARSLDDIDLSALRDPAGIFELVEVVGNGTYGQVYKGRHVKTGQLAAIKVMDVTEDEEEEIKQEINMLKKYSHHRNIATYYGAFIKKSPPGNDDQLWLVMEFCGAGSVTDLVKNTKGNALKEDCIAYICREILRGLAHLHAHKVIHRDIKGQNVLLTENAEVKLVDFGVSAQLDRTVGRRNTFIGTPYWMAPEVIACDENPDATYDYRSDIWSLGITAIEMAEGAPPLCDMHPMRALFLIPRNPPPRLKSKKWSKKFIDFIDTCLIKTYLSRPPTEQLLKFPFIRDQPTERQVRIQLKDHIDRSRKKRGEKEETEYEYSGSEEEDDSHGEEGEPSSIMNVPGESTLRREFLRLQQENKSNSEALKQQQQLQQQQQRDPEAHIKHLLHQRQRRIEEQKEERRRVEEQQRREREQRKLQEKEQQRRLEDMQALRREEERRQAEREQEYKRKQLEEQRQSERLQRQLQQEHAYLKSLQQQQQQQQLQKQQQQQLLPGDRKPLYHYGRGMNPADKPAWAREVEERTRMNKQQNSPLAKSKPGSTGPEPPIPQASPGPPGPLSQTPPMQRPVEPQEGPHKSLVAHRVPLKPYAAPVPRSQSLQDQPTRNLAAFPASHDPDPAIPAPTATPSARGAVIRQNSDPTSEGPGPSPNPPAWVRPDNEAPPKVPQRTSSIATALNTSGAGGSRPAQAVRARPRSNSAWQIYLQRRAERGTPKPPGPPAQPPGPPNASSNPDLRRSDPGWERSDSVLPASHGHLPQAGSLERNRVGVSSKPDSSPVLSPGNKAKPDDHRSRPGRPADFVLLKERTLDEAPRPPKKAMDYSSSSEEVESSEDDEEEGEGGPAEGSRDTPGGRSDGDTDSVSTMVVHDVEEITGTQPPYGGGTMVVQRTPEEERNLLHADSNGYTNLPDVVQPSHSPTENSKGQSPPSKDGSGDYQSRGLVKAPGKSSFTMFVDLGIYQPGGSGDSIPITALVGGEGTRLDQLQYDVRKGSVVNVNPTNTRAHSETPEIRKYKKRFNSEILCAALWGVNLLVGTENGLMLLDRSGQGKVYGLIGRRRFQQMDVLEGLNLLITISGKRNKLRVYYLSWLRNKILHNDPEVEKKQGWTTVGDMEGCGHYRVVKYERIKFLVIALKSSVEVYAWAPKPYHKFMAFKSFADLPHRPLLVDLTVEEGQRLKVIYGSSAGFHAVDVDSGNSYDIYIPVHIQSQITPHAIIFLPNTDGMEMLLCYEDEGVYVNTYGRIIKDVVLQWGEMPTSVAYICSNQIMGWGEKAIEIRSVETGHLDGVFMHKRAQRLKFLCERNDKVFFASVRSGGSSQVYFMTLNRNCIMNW
UniProt Q16539, sequence (whole entry, looked up): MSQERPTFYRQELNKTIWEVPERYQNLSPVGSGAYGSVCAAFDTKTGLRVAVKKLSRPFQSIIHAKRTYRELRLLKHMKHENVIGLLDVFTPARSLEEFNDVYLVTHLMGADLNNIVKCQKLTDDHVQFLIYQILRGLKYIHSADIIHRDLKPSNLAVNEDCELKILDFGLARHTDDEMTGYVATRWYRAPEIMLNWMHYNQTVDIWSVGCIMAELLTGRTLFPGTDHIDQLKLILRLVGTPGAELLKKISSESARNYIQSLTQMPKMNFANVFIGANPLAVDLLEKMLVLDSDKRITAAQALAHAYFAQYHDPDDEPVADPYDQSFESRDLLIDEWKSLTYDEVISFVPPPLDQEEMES

Series 1
Compound: CCc1ccccc1C(=O)Nc1n[nH]c2c(C)c(F)c(C3C(C#N)=C(C)N(C)C(C)=C3C#N)cc12
Effect on: cell-free assay
Method: competition with immobilised ligand
Tested at: 1 µM
target | remaining binding [%]
ANKK1 (Homo sapiens, UniProt Q8NFD2) | 100
MAPK3 (Homo sapiens, UniProt P27361) | 95
BRAF (Homo sapiens, UniProt P15056) | 78
MAP3K5 (Homo sapiens, UniProt Q99683) | 100
GSK3A (Homo sapiens, UniProt P49840) | 90
PLK3 (Homo sapiens, UniProt Q9H4B4) | 100

Series 2
Target: His6 tag
Method: AlphaScreen counter screen
Tested at: concentration not given
Compound | inhibition [%]
Cn1cnc2c(F)c(Nc3ccc(Br)cc3Cl)c(C(=O)NOCCO)cc21 | 7.4
CCn1c(=O)c(-c2cc[nH]n2)cc2c(C)nc(N)nc21 | 30.1
CCN(CC)Cc1c(-c2ccncc2)[nH]c2ncccc12 | 1.1
Cc1cc(O)nc(SCC(=O)Nc2nnc(SCC(N)=O)s2)n1 | 12.6
O=c1n(Cc2ccccc2)sc(=S)n1Cc1ccccc1 | -41.9
Fc1ccc(-c2[nH]c3ncccc3c2CN2CCOCC2)cc1 | 0
O=C(Nc1c[nH]nc1-c1nc2ccc(CN3CCOCC3)cc2[nH]1)NC1CC1 | 8.1
COc1ccc(CNC(=O)c2n[nH]c3ccccc23)cn1 | 2.35

Series 3
Organism: Plasmodium berghei
Mode: inhibitor
Cell line: Huh-7
Strain: liver stage
Tested at: 10 µM
Time: 24 h
Reference: untreated control
Compound | infection rate
CC(C)OC(=O)C(C)(C)Oc1ccc(C(=O)c2ccc(Cl)cc2)cc1 | 105%
CC1CC(OC(=O)C(O)c2ccccc2)CC(C)(C)N1C (centres unmarked) | 92.7%
NC(=O)OCC(COC(N)=O)c1ccccc1 | 107%
Cc1oncc1C(=O)Nc1ccc(C(F)(F)F)cc1 | 103%
CCCCC1=NC2(CCCC2)C(=O)N1Cc1ccc(-c2ccccc2-c2nnn[nH]2)cc1 | 96.2%

Series 4
SMILES: CCN(CC)C(=O)c1ccc(Nc2nc(OCC3CCCCC3)c3[nH]cnc3n2)cc1
Effect on: enzyme activity
Mode: inhibitor
Tested at: 0.5 µM
Reference: control
target | remaining activity
GRK4 (Homo sapiens, UniProt P32298) | 93%
KDR (Homo sapiens, UniProt P35968) | 76.5%
MET (Homo sapiens, UniProt P08581) | 85.3%
MAPK1 (Homo sapiens, UniProt P28482) | 106%
TXK (Homo sapiens, UniProt P42681) | 46%
PLK3 (Homo sapiens, UniProt Q9H4B4) | 98.1%
CAMK4 (Homo sapiens, UniProt Q16566) | 97.7%
MINK1 (Homo sapiens, UniProt Q8N4C8) | 88.5%
MAPK14 (Homo sapiens, UniProt Q16539) | 94.7%
MARK2 (Homo sapiens, UniProt Q7KZI7) | 75.3%
Cyclin-dependent kinase 9, with cyclin K (CDK9, Homo sapiens, UniProt P50750) | 72.6%
CDC42BPB (Homo sapiens, UniProt Q9Y5S2) | 99.3%
CLK3 (Homo sapiens, UniProt P49761) | 84.1%

For quick reference, copied from above (series 4):
target | remaining activity
PLK3 (Homo sapiens, UniProt Q9H4B4) | 98.1%
CAMK4 (Homo sapiens, UniProt Q16566) | 97.7%
MINK1 (Homo sapiens, UniProt Q8N4C8) | 88.5%
MAPK14 (Homo sapiens, UniProt Q16539) | 94.7%
MARK2 (Homo sapiens, UniProt Q7KZI7) | 75.3%
